Experimental data of several laboratories.
Each numbered part is a random draw from the data of one study; scales do not carry over between parts.

Study 1 — technique: RNA Bind-n-Seq; form: RNA; medium: in vitro; tested at: not given; baseline: input RNA pool; reading: higher = stronger binding; measurement: bound/input enrichment
Target: RING finger protein unkempt homolog, zinc fingers 1-6, GST-SBP tag (UNK, Homo sapiens, UniProt Q9C0B0, residues 30-357)
UniProt Q9C0B0, sequence (30-357, looked up): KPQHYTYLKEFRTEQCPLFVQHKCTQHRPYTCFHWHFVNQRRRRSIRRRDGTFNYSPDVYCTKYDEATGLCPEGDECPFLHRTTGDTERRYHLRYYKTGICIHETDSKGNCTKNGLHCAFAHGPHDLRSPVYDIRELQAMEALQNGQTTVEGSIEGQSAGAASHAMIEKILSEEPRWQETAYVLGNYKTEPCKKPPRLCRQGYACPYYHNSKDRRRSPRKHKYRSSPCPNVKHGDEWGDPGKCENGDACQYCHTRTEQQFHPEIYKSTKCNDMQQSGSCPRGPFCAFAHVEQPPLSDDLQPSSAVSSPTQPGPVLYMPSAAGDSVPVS
Notes: RNA with constant flanks, human-mouse chimeric sites, ends assumed
Constant ends, left off below: GGGAGUUCUACAGUCCGACGAUC … CAACAGAGGAUUGAGCAUCA
GAUCAUGGAACCAGAAUAGAAAUGAAGAUGAGAUUACCCAGACGAGCCAAAACAGCUGCGCUACAGAAAAGUAAACUUUAACCUUGCGAGUUCCUUAAUGAAGAUACAAGUUAAGAGAGC: 0.521 ratio
AUGGAACAUUUUGAUGCGUCACUCAGUACCUAUUUCAAGGCAUUGCUGGGCCCCCGAGAUACAAGAGUCAAAGGAUGGUUCCUCCUGGACAAUUACAUCCCUACGUUUGUCUGUUCUGUU: 0.131 ratio
CCUCUGCCCCGCUCUGCAGCCUGGGGACACUGGGCUGCAUUUUUUUUCCAGCUUUCUUUUAAAACUCUCAGUGUAACUGUAUCCCGUGACAUUUCAUUUUUUUUAAAUAGUGUAUUUUUU: 6.12 ratio
GAAUCCUACUCAGGCGGAUUUUGCAACACCAAGCUCAAGUAGCAAUUAUCUUAGUCACAGUAGGGUAGUUUUGGGGCUCUGUGGCCAGGGUUUUAUUCACAUGCAGGUUUUGAAAAUGUA: 1.67 ratio
GGAAGCACAAUGAUGGAGAUUGAUGGUGACAAAGGCAAGCAGGGCGGGCCCACCUACUACAUAGACACCAAUGCCCUCCGCGUGCCCAGGGAGAACAUGGAGGCCAUUUCACCUCUAAAG: 0.232 ratio
GUAAUGGACGUUAAUACUGCUCUACAAGAGGUGCUGAAGACUGCCCUCAUCCACGAUGGCCUAGCACGUGGCAUACGCGAAGCUGCCAAAGCCUUAGACAAGCGCCAAGCCCAUCUGUGU: 0.153 ratio
CCAAUUGUGGAGCAGUACUUGAAGACAAAAAAGAACUCUAGUCAUUUAAUCAUCAAGUACAUUAGCUGCCGCCUGCUGACACUCAUCAUUAUACUGUUAGCGUGUAUCUACCUGGGCUAU: 0.38 ratio
CUGGCACUCUAUCAGAUAUAUUAAUUUUUUAAUGUAGAUGUAAUUUUAAAAAUGAAUGGCUACUUUACGUGAUAGAUUAGGGUUUUACUAUAUAUGUGUACAUAUGUAUAUGUAUUUAUA: 5.78 ratio

Study 2 — technique: RNA Bind-n-Seq; form: RNA; medium: in vitro; tested at: 365 nM; baseline: no-protein control; reading: higher = stronger binding; measurement: RBNS enrichment (R)
Target: RNA binding protein fox-1 homolog 2, RRM domain, GST-SBP tag (RBFOX2, Homo sapiens, UniProt O43251-10, residues 100-194)
Notes: natural RNA segment, single round, ends assumed
Constant ends, left off below: GGGAGUUCUACAGUCCGACGAUC … UGGAAUUCUCGGGUGCCAA
Residues (chain): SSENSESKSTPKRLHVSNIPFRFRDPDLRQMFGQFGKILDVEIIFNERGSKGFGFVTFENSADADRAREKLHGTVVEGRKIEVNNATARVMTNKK
CCAAUCCCGGUCAUGCUUUUGCCACUUUGGCUUCUCCUGUGACCCCACCUUGACGGUGGGGCGUAGACUUGACAACAUCCCACAGUGGCACGGAGAGAAGGCCCAUACCU: 0.178
UAAUGAUGAAUAUAAAAAUACCUGUCAUCCCCAGAUCAUUUAAAAGUUAACUAAAGUGAGAAUGAAAAAACAAAAUUCCAAGACACUUUUUAAAAGAAUGUCUGCCCUCA: 0.433
UUAGAAAUGUAAGUUUUAAGGAUGGCCUUGUUGCCUUCUAUCAAGUUCUCUGGGACUUUGUAAUUUUGAUUACUACUAUUGAUACAUGGUUAUGGUCAGAAGGCCUCUUC: 0.254
ACCUUCUUAGCCUCCUUCCUUCCUUCCACACGGCCCAGAGGCCAGCUCGGCCCCACCCAGAGGGCCUGGCCAGCUGCUCCCAAGCCACCCAGGGAGGCAGCAGACAGGUG: 0.438
UACCUCUGACAUCAUUCUUUUUUUCUGAAAGGGGUAAUAAUUCUAGUUUUGAUAGACUCUGAGGAUCAUAUGAACAGGACAUUUUUCAUUUGUGAAUUUAAUGCUAUCUU: 0.58
UCAACAUCUUAUUCUUUGGCCUUUCUUAAUUGAUGCUUUAUGGAGGCAGUGUUAACAUUGUACAGUGUAUGCAUAGAGGAGUCUCCUCUAUUUGAAGAACAAUGCAAAAU: 1.24
AAAUCUUUCAAAAAAAAAAUCGGGACAAGUGAACACAUUAACAUGAUUCUGUUUGUGCAGAUUAAAAACUUUAUAGGGACUUGCAUUAUCGGUUCUCAAUAAAUUACUGA: 0.767
UUGGUCUUGCGAACCCCUAAAUUCUCUCGCUCACGACUGCACAGACUGUCUUGCGGCUCCUCUAUAGGAAAGAGUACUGAUGCCUGUCCGGCCCCGGUUCCCCUCAGGUC: 0.673

Study 3 — technique: universal PBM; form: double-stranded DNA, one strand shown; medium: in vitro; tested at: 600 nM; reading: higher = stronger binding; measurement: E-score
Target: Sal-like protein 4, full length isoform A (SALL4, Homo sapiens, UniProt Q9UJQ4, residues 1-1053)
UniProt Q9UJQ4, sequence (whole entry, looked up): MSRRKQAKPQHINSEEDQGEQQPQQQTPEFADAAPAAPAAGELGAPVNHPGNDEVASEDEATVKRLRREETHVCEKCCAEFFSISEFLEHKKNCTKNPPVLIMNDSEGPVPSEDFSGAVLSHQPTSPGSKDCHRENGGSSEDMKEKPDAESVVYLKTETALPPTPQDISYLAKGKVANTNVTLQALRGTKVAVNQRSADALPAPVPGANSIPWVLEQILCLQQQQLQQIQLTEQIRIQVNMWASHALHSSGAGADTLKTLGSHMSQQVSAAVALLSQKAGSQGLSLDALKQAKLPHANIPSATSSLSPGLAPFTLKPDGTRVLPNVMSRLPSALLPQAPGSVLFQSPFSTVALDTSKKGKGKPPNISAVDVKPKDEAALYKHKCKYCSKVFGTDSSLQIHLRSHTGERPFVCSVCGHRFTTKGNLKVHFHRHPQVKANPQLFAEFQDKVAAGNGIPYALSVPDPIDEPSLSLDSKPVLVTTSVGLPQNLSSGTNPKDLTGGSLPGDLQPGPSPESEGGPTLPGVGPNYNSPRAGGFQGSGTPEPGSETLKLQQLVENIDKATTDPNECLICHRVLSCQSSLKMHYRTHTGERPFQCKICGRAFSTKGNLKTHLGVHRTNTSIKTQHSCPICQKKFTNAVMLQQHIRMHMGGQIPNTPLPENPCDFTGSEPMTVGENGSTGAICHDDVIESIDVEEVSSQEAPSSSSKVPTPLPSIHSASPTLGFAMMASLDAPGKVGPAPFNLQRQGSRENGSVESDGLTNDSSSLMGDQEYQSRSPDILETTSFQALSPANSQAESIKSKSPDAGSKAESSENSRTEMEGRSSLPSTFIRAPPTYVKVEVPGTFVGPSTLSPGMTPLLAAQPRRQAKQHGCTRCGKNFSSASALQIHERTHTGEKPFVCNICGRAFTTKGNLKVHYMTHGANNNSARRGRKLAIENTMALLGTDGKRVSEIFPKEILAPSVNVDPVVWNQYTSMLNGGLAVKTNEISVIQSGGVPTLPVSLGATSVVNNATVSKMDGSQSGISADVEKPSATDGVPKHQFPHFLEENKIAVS
Notes: 8-mer, flanks averaged, mean of replicates
AAGAGCGG: -0.157
GCCGTTCA: -0.219
GCAATCGC: -0.152
TACTTCTA: 0.131
GCTAGTAA: 0.148
CGCATGTC: -0.00191
ACACCCGA: -0.0848
TAATGTAA: 0.327
GCCGTCCC: -0.282
CTGCAGGC: -0.25
ATGCGTTA: 0.129
ACCGATCG: -0.0742
CCTAATCA: 0.21
GCTGTCGA: -0.102
ACCTGTGG: -0.203
CAAAACCG: -0.0701
CCCTGACG: -0.302
GAAACGTA: 0.183
GTAGGAAA: 0.083
GGAAGTAC: -0.155
AATGCCTA: 0.0854
CACATTCG: 0.124
ACGCAAAC: -0.0732
CATGGCAC: -0.122
GACAGGCC: -0.35

Study 4 — technique: protein-binding microarray; form: double-stranded DNA, one strand shown; medium: in vitro; tested at: 250 nM; notes: 60-bp whole probe; together with: salmon DNA 0.4 mg/ml; baseline: random background probes; reading: higher = stronger binding; measurement: log fluorescence; constant ends, left off below: GCCTAGCAC … GTCTTGATTCGCTTGACGCTGCTG
Target: Interferon regulatory factor 7, full length, phosphomimetic (IRF7, Homo sapiens, UniProt Q92985, residues 1-503, S101K/S471D/S472D/S475D/S476D/S477D/S483D/S484D/S487D)
Construct (chain): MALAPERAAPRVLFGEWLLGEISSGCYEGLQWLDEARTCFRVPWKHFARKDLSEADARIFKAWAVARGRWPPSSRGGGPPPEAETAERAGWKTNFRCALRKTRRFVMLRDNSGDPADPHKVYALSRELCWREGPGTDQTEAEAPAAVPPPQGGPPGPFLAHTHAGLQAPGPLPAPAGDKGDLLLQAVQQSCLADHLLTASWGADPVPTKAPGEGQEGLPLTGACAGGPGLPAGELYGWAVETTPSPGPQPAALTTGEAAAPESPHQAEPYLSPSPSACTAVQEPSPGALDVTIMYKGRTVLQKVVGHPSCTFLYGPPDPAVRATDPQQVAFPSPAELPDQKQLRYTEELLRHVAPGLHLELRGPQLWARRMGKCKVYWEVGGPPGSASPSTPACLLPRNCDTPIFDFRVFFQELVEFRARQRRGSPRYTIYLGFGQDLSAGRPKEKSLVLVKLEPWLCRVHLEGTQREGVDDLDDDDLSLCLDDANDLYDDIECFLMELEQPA
GTAGGTTTCGGACTGGGTTAGTGCTAG: 3.35 z-score
GACGGTATCGACTTTAGGGACGTGCTA: 0.329 z-score
TTCGATTTCAGTTTCGATTAGTGCTAG: 8.85 z-score
TACGGACTGGGGACTGGGGACGTGCTA: -0.586 z-score
CAGTTTCTCTTTCCTTCTTGGTGCTAG: 9.57 z-score
TCATTTTTCTAGTCCAGACTGTGCTAG: 1.42 z-score
TTAGAACTGGGGTTTCGACTAGTGCTA: 2.05 z-score
TCAGGTCACTCTCTGGGACTGTGCTAG: -0.605 z-score
TTAGGCCTGGGTTTCGGTTAGTGCTAG: 6.32 z-score
TTAGGTTTCCTTATCCTTTTGTGCTAG: 3.07 z-score
GTGCCTTTTTTTTTTTTTCTGTGCTAG: 0.803 z-score
TAAGATATCAGTCTCGATTAGTGCTAG: 1.79 z-score
GACGAACTTGGGTTTCGAGACGTGCTA: 2.58 z-score
ATGATTGGTTGAACATGAACGTGCTAG: -0.00416 z-score
TTAGTACTGGACTTTCGGTTAGTGCTA: 1.04 z-score
TTAAATCTCAGACTGGATTAGTGCTAG: 0.0248 z-score
GACGGTATCGGTTTCGGGGCGTGCTAG: 6.24 z-score
TTAGATTTCAGACTGGATCAGTGCTAG: 0.00692 z-score
GACGGACTGCTGCTGCTGACGTGCTAG: -1.1 z-score
